Experimental data of several laboratories.
Protocols differ between the studies behind these lines. “And” joins repeats or separate records; there may be more than shown. Numbers after ± are the reported error. Values after ≈ are worked out from the molar mass of the structure shown.

Compound	cell line	assay	setting	how to read	endpoint	value
Cc1cc(C)nc(NC(=S)N2CCN(Cc3ccc(C(F)(F)F)cc3)CC2)c1	MDCK-MDR1				Papp A-B	4.1 ± 0.7 ×10⁻⁶ cm/s
Cc1nc2ccc(F)cc2c2c1C1(C)CC2c2cc(F)ccc2N1 (stereo not drawn)	Huh-7	cell growth or viability, MTT			CC50	> 400 µM
N#Cc1cccc(-c2ccc(=O)n(Cc3cccc(-c4ncc(OCC5CCN(CC(=O)N6CCN(c7ccc8c(c7)C(=O)N(C7CCC(=O)NC7=O)C8=O)CC6)CC5)cn4)c3)n2)c1 (stereo not drawn)	Caco-2	transwell monolayer	2 µM, 120 min, pH 7.4, 0.1% DMSO, with: tariquidar 5 µM		efflux ratio	0.88
COc1ccc2ncc(F)c(C[C@H](O)[C@H]3OC[C@H](NCc4ccc(C)cc4)CO3)c2n1	THP-1	cytotoxicity			IC50	39.4 µg/mL (≈ 92.2 µM)
CN(C)C(=O)c1cncc(N2Cc3cn(Cc4ccc(F)cc4)nc3C2)n1	MDCK-MDR1			baseline: B-A over A-B permeability	efflux ratio	3
COc1ccc2ncc(F)c(C[C@H](O)[C@H]3OC[C@H](NCc4ccc(Cl)c(Cl)c4)CO3)c2n1	THP-1	cytotoxicity			IC50	21.4 µg/mL (≈ 44.4 µM)
Cc1cc(C(c2ccc(Cl)cc2)c2ccc(Cl)cc2)c2nccc(C)c2c1	Huh-7	cell growth or viability, MTT			CC50	> 400 µM
COc1ccc2ncc(F)c(C[C@H](O)[C@H]3OC[C@H](NCc4ccc5c(c4)OCCO5)CO3)c2c1	THP-1	cytotoxicity			IC50	27.3 µg/mL (≈ 58 µM)
CC(=O)OC[C@H]1O[C@@H]([Se]c2ccc([N+](=O)[O-])cc2[N+](=O)[O-])[C@H](OC(C)=O)[C@@H](OC(C)=O)[C@@H]1OC(C)=O	THP-1	cell growth or viability, WST-1	24 h		CC50	> 25 µM
CCCCCc1ccc(Cc2cc(/C=C/C(=O)OC)cc3cccnc23)cc1	Huh-7	cell growth or viability, MTT			CC50	> 400 µM
COc1ccc2ncc(F)c(C[C@H](O)[C@H]3OC[C@H](NCc4ccc(Cl)c(Cl)c4)CO3)c2c1	THP-1	cytotoxicity			IC50	17.2 µg/mL (≈ 35.7 µM)
S=c1n(-c2ccccc2)c2c3ccccc3nc3[n+]2[n]1[Ir-3]12([S]3)([c]3ccc4ccccc4c3-c3sc4ccccc4[n+]31)[c]1ccc3ccccc3c1-c1sc3ccccc3[n+]12	A549	ICP-MS	10 µM, 24 h, 37 °C		cellular iridium uptake	0.44 ± 0.08 fmol/cell
Cc1cc(C(=O)Nc2nc3cccc(C)c3n2[C@H]2CCCCN(C(=O)/C=C/CN(C)C)C2)ccn1	NIH 3T3	cytotoxicity	4 days		CC50	14.1 µM and 8.02 µM and 6.86 µM
CC(=O)OC[C@H]1O[C@@H]([Se]C(C)=O)[C@H](OC(C)=O)[C@@H](OC(C)=O)[C@@H]1OC(C)=O	THP-1	cell growth or viability, WST-1	24 h		CC50	> 50 µM
Cc1cccnc1-c1csc(C(=O)Nc2cc(Cl)cc(NS(C)(=O)=O)c2)c1	WI-38	cell growth or viability, ATP luminescence	10 days		CC50	> 10 µM
O=C(/C=C/c1ccc(O)cc1)OC(CO)C(=O)O (stereo not drawn)	HeLa, SW480 and HCT-116	CCK-8	80 µM, 24 h		cytotoxicity	not toxic
COc1ccc2nccc(CC[C@H]3OC[C@H](NC(=O)c4ccc(Cl)c(Cl)c4)CO3)c2c1	THP-1	cytotoxicity			IC50	8.38 µg/mL (≈ 18.2 µM)
Cl.NCc1ccc2c(c1)CN(C1CCC(=O)NC1=O)C2=O (stereo not drawn)	Hep3B		concentration not given, 72 h		minimum viability	24.6% and 25%
CN1CCCNC(=O)c2cccc(c2)C(=O)NCCCN(C)CCCNc2cccc3c2C(=O)c2cccc(c2C3=O)NCCC1	NHEK	CCK-8	5 µM, 48 h	baseline: untreated	viability	42.6%
COc1ccc2nccc(CC[C@H]3OC[C@H](NCc4ccc(Cl)c(Cl)c4)CO3)c2c1	THP-1	cytotoxicity			IC50	31.2 µg/mL (≈ 69.7 µM)
Cc1cc(C)nc(NC(=S)N2CCN(c3ccc(C(F)(F)F)cn3)CC2)c1	MDCK-MDR1				Papp B-A	8.9 ± 0.9 ×10⁻⁶ cm/s

Repeated from above:
Compound	cell line	assay	setting	how to read	endpoint	value
COc1ccc2nccc(CC[C@H]3OC[C@H](NCc4ccc(Cl)c(Cl)c4)CO3)c2c1	THP-1	cytotoxicity			IC50	31.2 µg/mL (≈ 69.7 µM)
COc1ccc2ncc(F)c(C[C@H](O)[C@H]3OC[C@H](NCc4ccc(Cl)c(Cl)c4)CO3)c2n1	THP-1	cytotoxicity			IC50	21.4 µg/mL (≈ 44.4 µM)
